Results from different studies.
Each numbered part is a random draw from the data of one study; scales do not carry over between parts. Values joined by “and” are separate records of one study, mostly repeats; a detail may differ.
Chain of UniProt P42336 (whole entry, unmodified, looked up): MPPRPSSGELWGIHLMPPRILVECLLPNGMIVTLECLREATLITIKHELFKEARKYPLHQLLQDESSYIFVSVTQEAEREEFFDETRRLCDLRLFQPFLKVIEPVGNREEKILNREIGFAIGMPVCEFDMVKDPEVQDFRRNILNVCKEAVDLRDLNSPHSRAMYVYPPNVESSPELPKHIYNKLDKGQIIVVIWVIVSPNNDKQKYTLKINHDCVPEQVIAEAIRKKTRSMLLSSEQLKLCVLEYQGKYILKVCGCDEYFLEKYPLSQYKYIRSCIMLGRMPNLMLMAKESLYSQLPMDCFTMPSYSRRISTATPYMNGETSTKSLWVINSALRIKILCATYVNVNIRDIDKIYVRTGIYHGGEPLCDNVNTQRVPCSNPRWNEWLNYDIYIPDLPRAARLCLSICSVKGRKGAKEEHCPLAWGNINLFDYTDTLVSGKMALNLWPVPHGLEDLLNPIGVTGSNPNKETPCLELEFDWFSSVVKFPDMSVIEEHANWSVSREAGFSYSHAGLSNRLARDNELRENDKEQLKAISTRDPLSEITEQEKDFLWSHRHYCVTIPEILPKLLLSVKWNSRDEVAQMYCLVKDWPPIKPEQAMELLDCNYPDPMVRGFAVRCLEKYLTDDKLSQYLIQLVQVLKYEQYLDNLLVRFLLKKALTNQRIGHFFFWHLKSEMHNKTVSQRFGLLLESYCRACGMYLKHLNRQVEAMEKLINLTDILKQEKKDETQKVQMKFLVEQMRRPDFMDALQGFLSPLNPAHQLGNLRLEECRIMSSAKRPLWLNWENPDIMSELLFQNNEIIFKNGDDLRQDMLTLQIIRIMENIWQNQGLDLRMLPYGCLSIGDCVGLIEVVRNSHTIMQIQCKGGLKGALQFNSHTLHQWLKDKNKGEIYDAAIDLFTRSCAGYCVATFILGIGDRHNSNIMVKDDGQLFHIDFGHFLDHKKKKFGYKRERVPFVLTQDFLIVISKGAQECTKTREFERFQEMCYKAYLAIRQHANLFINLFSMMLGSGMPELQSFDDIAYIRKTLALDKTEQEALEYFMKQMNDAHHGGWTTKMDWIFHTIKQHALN
Chain of UniProt P28482 (whole entry, looked up): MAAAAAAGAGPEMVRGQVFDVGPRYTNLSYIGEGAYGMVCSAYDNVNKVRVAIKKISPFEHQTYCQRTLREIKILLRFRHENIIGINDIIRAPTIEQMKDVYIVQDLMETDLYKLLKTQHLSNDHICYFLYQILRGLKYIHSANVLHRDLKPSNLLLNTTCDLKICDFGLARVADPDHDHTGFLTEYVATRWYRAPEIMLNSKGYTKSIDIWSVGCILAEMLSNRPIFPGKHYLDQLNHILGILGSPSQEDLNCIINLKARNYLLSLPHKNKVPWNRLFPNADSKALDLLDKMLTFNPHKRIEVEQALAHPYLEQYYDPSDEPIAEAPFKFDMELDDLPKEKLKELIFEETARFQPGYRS

Sample 1 — read-out: enzyme activity; action: inhibitor; tested at: 0.5 µM; baseline: control; measurement: remaining activity
Target: Ephrin type-B receptor 2 (EPHB2, Homo sapiens, UniProt P29323)
Chain of UniProt P29323 (whole entry, looked up): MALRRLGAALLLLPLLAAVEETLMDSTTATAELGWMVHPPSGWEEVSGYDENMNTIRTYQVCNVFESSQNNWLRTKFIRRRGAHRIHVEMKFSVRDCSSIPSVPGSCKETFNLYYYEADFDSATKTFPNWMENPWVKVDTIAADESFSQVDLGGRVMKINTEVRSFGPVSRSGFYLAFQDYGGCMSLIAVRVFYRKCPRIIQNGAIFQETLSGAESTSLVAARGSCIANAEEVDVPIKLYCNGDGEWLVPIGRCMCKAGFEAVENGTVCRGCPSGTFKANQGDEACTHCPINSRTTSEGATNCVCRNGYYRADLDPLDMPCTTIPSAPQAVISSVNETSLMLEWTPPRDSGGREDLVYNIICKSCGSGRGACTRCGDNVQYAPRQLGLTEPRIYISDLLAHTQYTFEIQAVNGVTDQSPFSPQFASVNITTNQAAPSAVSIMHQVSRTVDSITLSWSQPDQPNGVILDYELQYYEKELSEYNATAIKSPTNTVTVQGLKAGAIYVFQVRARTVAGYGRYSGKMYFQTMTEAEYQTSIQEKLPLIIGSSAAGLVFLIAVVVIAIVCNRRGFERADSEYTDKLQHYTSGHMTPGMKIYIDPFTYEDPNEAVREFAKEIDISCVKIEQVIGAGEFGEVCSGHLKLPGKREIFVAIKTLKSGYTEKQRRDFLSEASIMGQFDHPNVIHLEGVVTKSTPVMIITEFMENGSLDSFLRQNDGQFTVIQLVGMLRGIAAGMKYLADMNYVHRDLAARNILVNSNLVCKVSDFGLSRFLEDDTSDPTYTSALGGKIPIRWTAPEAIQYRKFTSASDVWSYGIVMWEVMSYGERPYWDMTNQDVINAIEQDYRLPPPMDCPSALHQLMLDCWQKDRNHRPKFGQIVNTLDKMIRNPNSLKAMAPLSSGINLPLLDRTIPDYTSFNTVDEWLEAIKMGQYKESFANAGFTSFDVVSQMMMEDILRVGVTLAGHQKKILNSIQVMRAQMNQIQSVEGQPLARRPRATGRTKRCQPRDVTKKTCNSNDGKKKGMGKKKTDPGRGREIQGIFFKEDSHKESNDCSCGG
SMILES = COc1cc2ncnc(Nc3ccc(OCc4ccccc4)cc3)c2cc1OC; result = 93.9%
SMILES = Cn1cc(/C=C2\C(=O)Nc3ccc(S(N)(=O)=O)cc32)c2ccccc21; result = 84.8%
SMILES = CN(C)CCCn1cc(C2=C(c3c[nH]c4ccccc34)C(=O)NC2=O)c2ccccc21; result = 100%
SMILES = COc1ccc(-c2cnc3c(-c4ccsc4)cnn3c2)cc1; result = 80.5%
SMILES = Cn1cnc2cc3c(Nc4cccc(Br)c4)ncnc3cc21; result = 76.2%
SMILES = C[S+]([O-])c1ccc(-c2nc(-c3ccncc3)c(-c3ccc(F)cc3)[nH]2)cc1 (stereo not shown); result = 108%
SMILES = CS(=O)(=O)CCNCc1ccc(-c2ccc3ncnc(Nc4ccc(OCc5cccc(F)c5)c(Cl)c4)c3c2)o1; result = 101%
SMILES = CCC(=O)Nc1ccc2ncnc(Nc3cccc(Br)c3)c2c1; result = 95.1%
SMILES = CCOc1cc2ncnc(Nc3cccc(Br)c3)c2cc1OCC; result = 77%
SMILES = O=c1cc(N2CCOCC2)oc2c1ccc1ccccc12; result = 85%
SMILES = Nc1[nH]nc2nnc(-c3c(-c4ccccc4)nn4ccccc34)cc12; result = 93.1%
SMILES = CC(=O)O/N=C1/C(c2c(O)[nH]c3cc(Br)ccc23)=Nc2ccccc21; result = 81.4%
SMILES = CCN1/C(=C/C(C)=O)Sc2ccc(OC)cc21; result = 98.3%
SMILES = CC(C)c1nn(-c2c(Cl)cccc2Cl)c2nc(Cc3ccc(OCCO)cc3)[nH]c(=O)c12; result = 92.5%
SMILES = COc1ccc(Cl)cc1NC(=O)Nc1cc(C)nc2ccccc12; result = 93.2%
SMILES = CC(C)[C@H](CO)Nc1nc(Nc2cccc(Cl)c2)c2ncn(C(C)C)c2n1; result = 99.3%
SMILES = COc1cc2ncnc(N3CCN(C(=O)Nc4ccc(Oc5ccccc5)cc4)CC3)c2cc1OC; result = 98.2%
SMILES = Cc1ccc(NC(=O)c2ccc(CN3CCN(C)CC3)cc2)cc1Nc1nccc(-c2cccnc2)n1; result = 95.8%
SMILES = Cc1nc(Nc2ncc(C(=O)Nc3c(C)cccc3Cl)s2)cc(N2CCN(CCO)CC2)n1; result = -0.191%
SMILES = O=C1NC(=O)/C(=C/c2ccc3nccnc3c2)S1; result = 94.7%
SMILES = O=C(Nc1ccc(Cl)cc1)c1ccccc1NCc1ccncc1; result = 84.7%

Sample 2 — technique: competition with immobilised ligand; tested at: 1 µM; measurement: remaining binding
SMILES: CN(C)C(=O)Cn1cc(-c2nc([C@@](C)(c3ccc(-c4cnc(N)nc4)cc3)C3CC3)no2)cn1
target = Serine/threonine-protein kinase MAK (MAK, Homo sapiens, UniProt P20794); test = cell-free assay; result = 100%
target = Mitogen-activated protein kinase 1 (MAPK1, Homo sapiens, UniProt P28482); test = cell-free assay; result = 100%
target = Atypical kinase COQ8A, mitochondrial (COQ8A, Homo sapiens, UniProt Q8NI60); test = cell-free assay; result = 100%
target = Calcium/calmodulin-dependent protein kinase type 1D (CAMK1D, Homo sapiens, UniProt Q8IU85); test = cell-free assay; result = 100%
target = eIF-2-alpha kinase GCN2, C-terminal kinase domain (EIF2AK4, Homo sapiens, UniProt Q9P2K8, S808G); test = cell-free assay; result = 100%
target = Serine/threonine-protein kinase DCLK1 (DCLK1, Homo sapiens, UniProt O15075); test = cell-free assay; result = 71%
target = Serine/threonine-protein kinase ULK2 (ULK2, Homo sapiens, UniProt Q8IYT8); test = cell-free assay; result = 100%
target = Cyclin-dependent kinase-like 5 (CDKL5, Homo sapiens, UniProt O76039); test = binding; result = 89%
target = Serine/threonine-protein kinase RIO1 (RIOK1, Homo sapiens, UniProt Q9BRS2); test = cell-free assay; result = 100%
target = Protein kinase C iota type (PRKCI, Homo sapiens, UniProt P41743); test = cell-free assay; result = 93%
target = Rhodopsin kinase GRK1 (GRK1, Homo sapiens, UniProt Q15835); test = cell-free assay; result = 100%
target = Mitogen-activated protein kinase kinase kinase 20 (MAP3K20, Homo sapiens, UniProt Q9NYL2); test = cell-free assay; result = 80%
target = Phosphatidylinositol 4,5-bisphosphate 3-kinase catalytic subunit alpha isoform (PIK3CA, Homo sapiens, UniProt P42336, M1043I); test = cell-free assay; result = 100%
target = Cyclin-dependent kinase 18 (CDK18, Homo sapiens, UniProt Q07002); test = cell-free assay; result = 100%
target = Eukaryotic translation initiation factor 2-alpha kinase 1 (EIF2AK1, Homo sapiens, UniProt Q9BQI3); test = cell-free assay; result = 96%
target = Ephrin type-A receptor 4 (EPHA4, Homo sapiens, UniProt P54764); test = cell-free assay; result = 100%
target = Receptor-type tyrosine-protein kinase FLT3 (FLT3, Homo sapiens, UniProt P36888, F691L/ITD); test = cell-free assay; result = 100%
target = Tyrosine-protein kinase FRK (FRK, Homo sapiens, UniProt P42685); test = cell-free assay; result = 90%
target = Tyrosine-protein kinase ABL1, phosphorylated (ABL1, Homo sapiens, UniProt P00519, H396P); test = cell-free assay; result = 76%
target = Calcium/calmodulin-dependent protein kinase type 1G (CAMK1G, Homo sapiens, UniProt Q96NX5); test = cell-free assay; result = 100%
target = Phosphatidylinositol 4,5-bisphosphate 3-kinase catalytic subunit alpha isoform (PIK3CA, Homo sapiens, UniProt P42336, I800L); test = cell-free assay; result = 54%
target = Insulin receptor (INSR, Homo sapiens, UniProt P06213); test = cell-free assay; result = 89%
target = Leucine-rich repeat serine/threonine-protein kinase 2 (LRRK2, Homo sapiens, UniProt Q5S007); test = cell-free assay; result = 74%
target = Casein kinase I isoform gamma-3 (CSNK1G3, Homo sapiens, UniProt Q9Y6M4); test = cell-free assay; result = 95%
target = Serine/threonine-protein kinase tousled-like 2 (TLK2, Homo sapiens, UniProt Q86UE8); test = cell-free assay; result = 100%

Sample 3 — read-out: ATPase activity; tested at: concentration not given; notes: with minus without ssDNA; measurement: activity difference
Target: DNA polymerase theta, helicase domain (POLQ, Homo sapiens, UniProt O75417)
Chain of UniProt O75417 (whole entry, looked up): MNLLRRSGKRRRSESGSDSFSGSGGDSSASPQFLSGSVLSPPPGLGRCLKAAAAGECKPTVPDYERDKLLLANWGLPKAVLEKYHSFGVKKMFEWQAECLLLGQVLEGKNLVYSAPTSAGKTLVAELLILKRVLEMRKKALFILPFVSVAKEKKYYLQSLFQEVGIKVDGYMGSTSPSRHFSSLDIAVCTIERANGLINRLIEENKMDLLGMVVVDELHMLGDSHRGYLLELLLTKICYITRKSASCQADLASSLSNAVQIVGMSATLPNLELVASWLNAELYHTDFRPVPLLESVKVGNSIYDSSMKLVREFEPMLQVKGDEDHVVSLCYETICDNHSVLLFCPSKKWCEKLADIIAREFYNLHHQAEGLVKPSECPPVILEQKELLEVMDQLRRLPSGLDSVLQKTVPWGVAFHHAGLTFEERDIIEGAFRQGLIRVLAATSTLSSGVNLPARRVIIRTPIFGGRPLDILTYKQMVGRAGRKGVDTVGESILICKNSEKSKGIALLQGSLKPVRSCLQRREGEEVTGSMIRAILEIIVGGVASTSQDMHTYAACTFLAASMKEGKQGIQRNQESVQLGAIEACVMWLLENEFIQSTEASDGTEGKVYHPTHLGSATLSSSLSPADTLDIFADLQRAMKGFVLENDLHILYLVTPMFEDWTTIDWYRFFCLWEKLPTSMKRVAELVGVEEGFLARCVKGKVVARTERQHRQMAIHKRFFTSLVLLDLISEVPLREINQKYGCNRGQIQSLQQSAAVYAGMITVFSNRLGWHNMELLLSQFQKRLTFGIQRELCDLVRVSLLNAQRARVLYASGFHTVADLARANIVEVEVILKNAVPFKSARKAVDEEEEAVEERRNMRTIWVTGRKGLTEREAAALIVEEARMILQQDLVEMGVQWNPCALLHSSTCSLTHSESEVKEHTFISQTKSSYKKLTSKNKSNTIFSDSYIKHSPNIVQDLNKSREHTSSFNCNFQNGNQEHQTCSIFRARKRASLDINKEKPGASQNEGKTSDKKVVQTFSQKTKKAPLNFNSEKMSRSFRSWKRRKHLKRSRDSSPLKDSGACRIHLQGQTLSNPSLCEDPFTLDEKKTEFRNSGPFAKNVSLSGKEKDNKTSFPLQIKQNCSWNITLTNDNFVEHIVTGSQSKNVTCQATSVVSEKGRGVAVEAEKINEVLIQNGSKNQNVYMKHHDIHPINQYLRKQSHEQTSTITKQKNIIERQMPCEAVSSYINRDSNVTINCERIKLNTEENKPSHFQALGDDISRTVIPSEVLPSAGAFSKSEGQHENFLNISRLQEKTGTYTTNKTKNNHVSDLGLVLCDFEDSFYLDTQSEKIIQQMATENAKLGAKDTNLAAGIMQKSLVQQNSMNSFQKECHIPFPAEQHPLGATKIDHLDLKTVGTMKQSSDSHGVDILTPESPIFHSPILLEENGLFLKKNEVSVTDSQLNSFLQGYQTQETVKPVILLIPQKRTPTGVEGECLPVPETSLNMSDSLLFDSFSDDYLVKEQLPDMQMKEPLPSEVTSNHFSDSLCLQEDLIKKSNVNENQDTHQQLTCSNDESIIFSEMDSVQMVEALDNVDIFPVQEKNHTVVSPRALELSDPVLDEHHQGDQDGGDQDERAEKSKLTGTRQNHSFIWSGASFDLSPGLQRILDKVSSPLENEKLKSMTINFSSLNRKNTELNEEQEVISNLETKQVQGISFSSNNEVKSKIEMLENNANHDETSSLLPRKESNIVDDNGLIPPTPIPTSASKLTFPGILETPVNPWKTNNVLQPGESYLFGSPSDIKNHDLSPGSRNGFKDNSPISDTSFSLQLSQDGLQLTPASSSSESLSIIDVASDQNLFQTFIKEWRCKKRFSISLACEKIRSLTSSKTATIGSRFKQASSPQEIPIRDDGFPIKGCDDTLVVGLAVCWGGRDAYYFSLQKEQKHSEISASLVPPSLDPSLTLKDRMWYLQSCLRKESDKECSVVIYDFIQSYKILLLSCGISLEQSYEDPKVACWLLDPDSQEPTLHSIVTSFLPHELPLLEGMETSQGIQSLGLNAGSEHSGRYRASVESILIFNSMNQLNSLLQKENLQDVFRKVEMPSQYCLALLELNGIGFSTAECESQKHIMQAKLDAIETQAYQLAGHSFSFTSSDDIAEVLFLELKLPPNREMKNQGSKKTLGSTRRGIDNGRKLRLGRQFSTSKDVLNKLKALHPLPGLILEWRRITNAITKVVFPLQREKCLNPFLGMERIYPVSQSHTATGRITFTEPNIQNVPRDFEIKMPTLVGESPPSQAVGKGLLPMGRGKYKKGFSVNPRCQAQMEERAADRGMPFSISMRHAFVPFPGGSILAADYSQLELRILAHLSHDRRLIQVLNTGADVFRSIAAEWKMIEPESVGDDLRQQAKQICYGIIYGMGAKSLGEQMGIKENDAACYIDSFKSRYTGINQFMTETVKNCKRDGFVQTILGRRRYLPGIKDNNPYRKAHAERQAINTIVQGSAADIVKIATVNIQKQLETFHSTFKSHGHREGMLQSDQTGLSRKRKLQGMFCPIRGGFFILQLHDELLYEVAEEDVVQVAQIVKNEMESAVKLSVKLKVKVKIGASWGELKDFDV
SMILES = O=c1[nH]c2cc(Cl)ccc2c(O)c1-c1cccc(Oc2ccccc2)c1; result = 7.05%
SMILES = Cc1ccc(NC(=O)CSc2ncc(S(=O)(=O)c3ccc(C(C)C)cc3)c(=O)[nH]2)cc1C; result = 14.8%
SMILES = CC(=O)Oc1ccccc1C(=O)Nc1ncc([N+](=O)[O-])s1; result = 4.44%
SMILES = N#Cc1c(O)c2c(-c3ccc(-c4ccccc4O)cc3)csc2[nH]c1=O; result = 2.53%
SMILES = CCCCCCCCCCC/C=C\C(C)(C)/C=C\CCCC(=O)O; result = 3.63%
SMILES = Cc1ccc(C(=O)Nc2ccc(S(=O)(=O)[O-])c3cc(S(=O)(=O)[O-])cc(S(=O)(=O)[O-])c23)cc1NC(=O)c1cccc(NC(=O)Nc2cccc(C(=O)Nc3cc(C(=O)Nc4ccc(S(=O)(=O)[O-])c5cc(S(=O)(=O)[O-])cc(S(=O)(=O)[O-])c45)ccc3C)c2)c1.[Na+].[Na+].[Na+].[Na+].[Na+].[Na+]; result = 11.9%
SMILES = CC(C)(C)c1ccc(S(=O)(=O)c2cnc(SCC(=O)Nc3ccc4c(c3)OCCO4)[nH]c2=O)cc1; result = 7.66%
SMILES = CCOc1ccccc1NC(=O)CSc1ncc(S(=O)(=O)c2ccc(C(C)(C)C)cc2)c(=O)[nH]1; result = 1.63%

Single results of other studies
SMILES = O=C1CCC(N2Cc3cc(C4CCN(Cc5ccccc5)CC4)ccc3C2=O)C(=O)N1 (stereo not shown); system = ICR mice, male, plasma; conditions = intravenous, 1.0 mg/kg; measurement = steady-state volume of distribution; result = 9.76 L/kg and 9.16 L/kg

Excerpt of the above (sample 1):
SMILES = CCN1/C(=C/C(C)=O)Sc2ccc(OC)cc21; result = 98.3%
SMILES = C[S+]([O-])c1ccc(-c2nc(-c3ccncc3)c(-c3ccc(F)cc3)[nH]2)cc1 (stereo not shown); result = 108%
SMILES = CCOc1cc2ncnc(Nc3cccc(Br)c3)c2cc1OCC; result = 77%
